Published values pooled from the literature.
Each numbered part is a random draw from the data of one study; scales do not carry over between parts. Substitutions count along the parent as printed.

Study 1 — technique: RNAcompete; form: RNA; matrix: in vitro; concentration: 20 nM; setting: 7-mer, probes averaged, single round; baseline: mean of 7-mers; direction: higher = stronger binding; measurement: 7-mer Z-score
Target: PABPC1L2, full length, GST fusion (mouse, UniProt A0ABA7IW68)
Target sequence (chain): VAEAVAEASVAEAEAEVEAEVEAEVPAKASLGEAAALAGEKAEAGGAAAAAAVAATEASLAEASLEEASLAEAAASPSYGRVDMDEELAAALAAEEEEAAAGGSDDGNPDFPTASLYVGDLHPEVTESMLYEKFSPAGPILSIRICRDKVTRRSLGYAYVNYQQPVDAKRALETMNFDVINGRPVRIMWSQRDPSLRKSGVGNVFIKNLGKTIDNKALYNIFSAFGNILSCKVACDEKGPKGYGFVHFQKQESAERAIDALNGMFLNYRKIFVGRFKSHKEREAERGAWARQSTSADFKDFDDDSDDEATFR
GUAAUCC: -0.157
GUAGAGC: -0.121
UUUUCCA: -0.277
UUUCUCA: -0.487
GACGCUU: -0.298
CCUGAUU: -0.278
UGCUACG: -0.0971
GUAUAGG: -0.0409
AAAGUGU: 1.64
ACAUAAU: 0.0442
GAAGGAC: 0.153
CGUACUU: -0.219
AGAGAUA: 0.0696
AGUCCCU: -0.289

Study 2 — target: CCNA1, cyclin fold, Cln2 fusion (human); technique: yeast growth competition, sequencing; matrix: yeast; setting: weak parent motif; baseline: not given; direction: higher = stronger binding; measurement: normalised enrichment score
Parent: BRCA2 docking peptide (human); CKKRRALDFLSRL
R12A: 0.678
R5K: -0.125
R5K F9L: 0.386
D8A: 0.238
R5A L7A: 0.263
K3A: 0.126
R5A: 0.341
L10A: 0.489
R4A: 0.187

Study 3 — technique: DHFR PCA, deep sequencing; matrix: yeast; with: (+)-ABA 58 µM; baseline: wild-type fitted maximum; direction: higher = stronger binding; measurement: relative binding score
Target: ABI1, truncated, D143A, DHFR fusion (Arabidopsis thaliana)
Setting: methotrexate growth selection, single substitutions
Parent: PYL1, truncated, DHFR fusion (Arabidopsis thaliana); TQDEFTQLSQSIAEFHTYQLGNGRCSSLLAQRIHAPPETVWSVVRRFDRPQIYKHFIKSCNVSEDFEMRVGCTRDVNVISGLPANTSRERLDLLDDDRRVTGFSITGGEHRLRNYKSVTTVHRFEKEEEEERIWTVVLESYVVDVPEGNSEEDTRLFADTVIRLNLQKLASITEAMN
F66S: 78.8%
R113V: 90.7%
N114A: 45.4%
G148K: 50.7%
V40S: 6.11%
D97N: 92.7%
L82C: 52.9%
R46I: 25.2%
C72W: 60%
W41G: -2.67%
I172P: -0.438%
A30M: 100%
H122Y: 16%
V121P: 7.71%
H34C: 97.7%
S42W: 49.5%
I12T: 48.2%
Y115I: -0.502%
E147N: 76.6%

Study 4 — technique: RNA Bind-n-Seq; form: RNA; matrix: in vitro; concentration: 365 nM; baseline: no-protein control; direction: higher = stronger binding; measurement: RBNS enrichment (R)
Target: RNA binding protein fox-1 homolog 2, RRM domain, GST-SBP tag (RBFOX2, Homo sapiens, UniProt O43251-10, residues 100-194)
Setting: natural RNA segment, single round, ends assumed
Constant ends, left off below: GGGAGUUCUACAGUCCGACGAUC … UGGAAUUCUCGGGUGCCAA
Construct (chain): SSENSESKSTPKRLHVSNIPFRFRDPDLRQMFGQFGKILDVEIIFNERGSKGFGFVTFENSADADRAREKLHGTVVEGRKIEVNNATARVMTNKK
AUUCCCAGUUCCUCCAGUGCCAGUACUUUAGCUUGGCCUAGCCCCAGUCUCAGGAACUGUUGUGGUGCCCCUGAGCCCACAGUCAUCUCCAGAGUCCACCUGGAAGCCUG: 0.322
AUCAUGUCCAACCUGCUGGAGCCCCUUCACAUGGUGGAUGAUGCCCCAUGACCCUGUAGAAAUUGAAUCCUGCUCACAACAUUGUUGGCCUUCUUACUAACCUUGGACCG: 0.776
GAUGUUUUUUCUUUCCUUUUCUUUUCAAAUCCUUUAAUGAUAGGAAGACAAGUGAAACUGGGUGCAAGCUAAAAUUUUUAAAUGGUGUGGAGACUCGAAUGAUACCAAGA: 0.585
CAAGCCUCCCUCCCUGGGCUACAGGGCCUCCGGUCCUGCUCCCAUACCCAGGUUUGGUUCCUCUAGGGGGGGGCCCCCACUGUGGAGAUAAAAGUCGGGGAUGGAAUGGG: 0.574
CGUCAAUGUAUAUCCUUUUAUAACUCUACCACUUUGGGGCAAGCUAUUCCAGCACUGGUUUUGAAUGCUGUAUGCAACCAGUCUGAAUACCACAUACGCUGCACUGUUCU: 21.3
CAGUGUCUCUUGAGCAUCCCUUCGCGCCCCCCACCCUCCACUGCCGUCCCUCCCCAGAUGGGGCGUUGAGUCCAUAUUUAAACUGGCCACCCUCACAGUUCUAACUUAGC: 0.769
ACUGUGCGUCUCCUGCCUUGUCGUUCGGUAAUGAGACUAGAAAGAGAUACACUGUAAAGGAGGGGGAAGGGAAGGGUUGACCAGUUGGGUUUUUUGCGUCCUUUUGGAAU: 1.46
CAUUUUCCUACCUAUAUUACACAAAAAAGUAUAGAAAAGAUUUAAGUAAUUUUGCCAUCCUAGGCUUAAAUGCAAUAUUCCUGGUAUUAUUUACAAUGCAGAAUUUUUUG: 0.505
GCACUCUGAUUAGGAUAUCCACUUUGCAAAUAAAACCAAAUGUUUUGUCAACAUGAUGGUAAAAAGGAAAGAAAUCUGUUACAAAGACAAAUUAGAGGGAAAUUUGUCCU: 0.767
CUGUCUAAACACCAACCAUCUUCUCUUGGAAUGGGCCCCAGGCAAGGCUUGCAGCAAUAUAGCCUGGACCCAGAAAAGGGAAAACGAUAAGGAAAUUCUGUCUGGUAGGU: 0.537
AAAACUCAUUGAUUGGGUUUCUACUUCUUUCAAGGACUCAGGAAAUUUCACUUUGAACUGAGGCCAAGUGAGCUGUUAAGAUAACCCACACUUAAACUAAAGGCUAAGAA: 0.323
ACCGUACACUUCCCACACGAGCUGCGGCUGCCAGCCUCGGGCCAUCAGCCUAGGAGAGCAGAUGCAGCUCCAGGGGCUCGACUUAUAGCCAGUUACAGCUCCCCGGCUCU: 0.155

Excerpt of the above (study 1):
AGUCCCU: -0.289
UGCUACG: -0.0971
AAAGUGU: 1.64
GUAAUCC: -0.157
CGUACUU: -0.219
